Assay results gathered from unrelated publications.
Each numbered part is a random draw from the data of one study; scales do not carry over between parts. “And” joins repeats or separate records; there may be more than shown.
Chain of UniProt P08581 (whole entry, looked up): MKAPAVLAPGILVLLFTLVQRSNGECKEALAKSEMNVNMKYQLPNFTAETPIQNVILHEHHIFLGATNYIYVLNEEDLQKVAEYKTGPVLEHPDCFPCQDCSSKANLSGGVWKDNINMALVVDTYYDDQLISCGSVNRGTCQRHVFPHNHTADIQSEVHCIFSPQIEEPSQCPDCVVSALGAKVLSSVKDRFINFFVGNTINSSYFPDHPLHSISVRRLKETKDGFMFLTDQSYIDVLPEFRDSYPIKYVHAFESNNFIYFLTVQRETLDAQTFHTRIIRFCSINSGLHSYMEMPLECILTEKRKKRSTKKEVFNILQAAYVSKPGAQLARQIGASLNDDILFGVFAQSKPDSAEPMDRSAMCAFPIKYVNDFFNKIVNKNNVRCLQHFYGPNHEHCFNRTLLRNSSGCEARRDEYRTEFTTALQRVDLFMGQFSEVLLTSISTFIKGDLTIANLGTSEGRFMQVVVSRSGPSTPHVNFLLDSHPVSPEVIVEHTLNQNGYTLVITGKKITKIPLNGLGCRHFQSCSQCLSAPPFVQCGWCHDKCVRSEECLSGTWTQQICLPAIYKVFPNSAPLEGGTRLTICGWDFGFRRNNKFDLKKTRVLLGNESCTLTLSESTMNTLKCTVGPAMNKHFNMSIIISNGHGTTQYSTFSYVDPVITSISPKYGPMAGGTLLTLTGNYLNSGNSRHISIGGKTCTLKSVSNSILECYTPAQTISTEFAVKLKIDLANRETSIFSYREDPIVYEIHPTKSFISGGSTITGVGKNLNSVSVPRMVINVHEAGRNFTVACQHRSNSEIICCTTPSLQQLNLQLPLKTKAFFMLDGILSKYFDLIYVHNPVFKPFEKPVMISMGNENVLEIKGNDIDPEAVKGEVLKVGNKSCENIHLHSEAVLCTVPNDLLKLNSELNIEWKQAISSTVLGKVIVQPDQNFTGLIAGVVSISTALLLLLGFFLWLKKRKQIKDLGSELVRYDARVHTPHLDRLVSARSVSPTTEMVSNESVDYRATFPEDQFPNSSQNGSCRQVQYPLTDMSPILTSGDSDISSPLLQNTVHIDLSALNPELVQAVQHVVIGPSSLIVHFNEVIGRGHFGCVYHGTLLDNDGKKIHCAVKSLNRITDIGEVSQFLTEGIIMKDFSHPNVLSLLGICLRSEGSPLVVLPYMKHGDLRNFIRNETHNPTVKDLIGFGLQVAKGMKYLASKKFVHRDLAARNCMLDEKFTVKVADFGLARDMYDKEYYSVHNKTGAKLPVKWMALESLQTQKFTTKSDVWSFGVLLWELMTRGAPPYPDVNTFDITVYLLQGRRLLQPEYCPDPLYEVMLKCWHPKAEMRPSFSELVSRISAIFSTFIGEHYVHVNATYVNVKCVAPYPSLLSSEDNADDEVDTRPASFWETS
Chain of UniProt P10721 (whole entry, unmodified, looked up): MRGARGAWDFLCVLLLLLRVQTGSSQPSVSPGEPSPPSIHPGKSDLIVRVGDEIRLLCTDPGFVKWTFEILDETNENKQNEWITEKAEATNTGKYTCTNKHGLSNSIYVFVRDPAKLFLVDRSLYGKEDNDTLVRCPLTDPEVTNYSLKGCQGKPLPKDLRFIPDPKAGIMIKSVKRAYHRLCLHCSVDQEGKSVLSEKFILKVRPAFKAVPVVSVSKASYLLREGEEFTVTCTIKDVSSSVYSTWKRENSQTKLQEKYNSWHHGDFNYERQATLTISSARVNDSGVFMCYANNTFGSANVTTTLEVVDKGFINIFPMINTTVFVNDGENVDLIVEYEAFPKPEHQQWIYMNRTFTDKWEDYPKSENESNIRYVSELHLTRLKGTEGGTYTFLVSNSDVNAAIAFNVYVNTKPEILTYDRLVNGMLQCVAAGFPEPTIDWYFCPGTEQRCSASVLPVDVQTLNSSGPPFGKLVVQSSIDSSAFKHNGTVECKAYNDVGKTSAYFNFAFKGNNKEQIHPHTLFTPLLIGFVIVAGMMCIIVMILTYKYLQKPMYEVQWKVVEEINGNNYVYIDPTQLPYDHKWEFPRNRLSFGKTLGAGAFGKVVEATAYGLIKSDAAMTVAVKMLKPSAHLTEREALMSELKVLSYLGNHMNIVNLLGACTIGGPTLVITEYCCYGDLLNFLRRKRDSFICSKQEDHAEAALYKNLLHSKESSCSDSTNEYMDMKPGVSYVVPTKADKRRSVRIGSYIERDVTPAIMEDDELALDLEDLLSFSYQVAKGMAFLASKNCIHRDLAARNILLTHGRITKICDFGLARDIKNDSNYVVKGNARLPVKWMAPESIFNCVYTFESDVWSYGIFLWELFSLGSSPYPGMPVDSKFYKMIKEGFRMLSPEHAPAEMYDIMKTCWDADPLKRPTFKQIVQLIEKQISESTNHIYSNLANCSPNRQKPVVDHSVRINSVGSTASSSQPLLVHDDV
Chain of UniProt O75676 (whole entry, looked up): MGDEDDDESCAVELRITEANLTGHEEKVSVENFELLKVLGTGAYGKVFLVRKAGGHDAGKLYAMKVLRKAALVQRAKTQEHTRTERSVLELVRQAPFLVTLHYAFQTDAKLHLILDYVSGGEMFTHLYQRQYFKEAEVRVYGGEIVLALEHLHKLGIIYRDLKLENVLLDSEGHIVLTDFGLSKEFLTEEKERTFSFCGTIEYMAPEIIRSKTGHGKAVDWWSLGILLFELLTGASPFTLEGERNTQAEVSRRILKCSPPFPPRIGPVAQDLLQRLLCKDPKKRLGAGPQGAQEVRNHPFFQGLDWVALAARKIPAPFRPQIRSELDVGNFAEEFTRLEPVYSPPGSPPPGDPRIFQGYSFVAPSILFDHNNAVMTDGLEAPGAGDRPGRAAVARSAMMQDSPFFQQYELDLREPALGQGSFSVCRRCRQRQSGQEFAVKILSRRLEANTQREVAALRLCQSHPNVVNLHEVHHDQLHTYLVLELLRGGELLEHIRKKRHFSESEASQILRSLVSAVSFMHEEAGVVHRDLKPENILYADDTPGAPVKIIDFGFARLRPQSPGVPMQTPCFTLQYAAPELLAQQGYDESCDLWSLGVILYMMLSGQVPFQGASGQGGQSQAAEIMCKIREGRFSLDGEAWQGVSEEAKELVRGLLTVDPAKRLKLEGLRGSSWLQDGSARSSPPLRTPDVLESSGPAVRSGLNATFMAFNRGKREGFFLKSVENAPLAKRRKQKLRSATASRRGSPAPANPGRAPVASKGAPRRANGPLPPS
Chain of UniProt Q16539 (whole entry, looked up): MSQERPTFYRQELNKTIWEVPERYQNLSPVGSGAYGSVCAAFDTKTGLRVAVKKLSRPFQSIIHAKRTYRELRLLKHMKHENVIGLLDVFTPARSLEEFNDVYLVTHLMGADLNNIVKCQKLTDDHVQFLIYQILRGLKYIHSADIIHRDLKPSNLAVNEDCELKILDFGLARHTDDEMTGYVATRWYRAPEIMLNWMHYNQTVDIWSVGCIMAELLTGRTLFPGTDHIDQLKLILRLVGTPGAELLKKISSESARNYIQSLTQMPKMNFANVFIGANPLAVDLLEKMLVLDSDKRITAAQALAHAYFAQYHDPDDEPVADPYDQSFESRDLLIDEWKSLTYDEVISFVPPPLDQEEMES
Chain of UniProt Q15759 (whole entry, looked up): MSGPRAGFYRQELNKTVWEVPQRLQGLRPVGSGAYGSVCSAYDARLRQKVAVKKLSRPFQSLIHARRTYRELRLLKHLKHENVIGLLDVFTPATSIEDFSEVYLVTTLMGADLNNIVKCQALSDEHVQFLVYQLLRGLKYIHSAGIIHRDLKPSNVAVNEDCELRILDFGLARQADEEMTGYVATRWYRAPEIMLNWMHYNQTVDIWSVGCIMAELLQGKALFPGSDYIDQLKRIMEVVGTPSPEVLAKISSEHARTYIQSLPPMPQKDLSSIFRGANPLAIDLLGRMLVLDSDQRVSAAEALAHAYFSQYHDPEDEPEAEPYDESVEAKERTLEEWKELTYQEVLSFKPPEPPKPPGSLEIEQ
Chain of UniProt P06493 (whole entry, looked up): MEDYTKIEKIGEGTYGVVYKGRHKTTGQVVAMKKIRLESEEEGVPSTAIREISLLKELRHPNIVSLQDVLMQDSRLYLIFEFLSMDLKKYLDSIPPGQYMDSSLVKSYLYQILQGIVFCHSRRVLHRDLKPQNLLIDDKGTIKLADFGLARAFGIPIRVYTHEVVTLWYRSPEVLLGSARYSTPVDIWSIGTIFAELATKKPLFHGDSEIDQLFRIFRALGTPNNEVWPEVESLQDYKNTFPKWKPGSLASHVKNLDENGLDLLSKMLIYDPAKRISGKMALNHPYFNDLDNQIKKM

Study 1 — effect on: enzyme activity; mode: inhibitor; tested at: 10 µM
Target: Calcium/calmodulin-dependent protein kinase type II subunit alpha (CAMK2A, Homo sapiens, UniProt Q9UQM7)
Chain of UniProt Q9UQM7 (whole entry, looked up): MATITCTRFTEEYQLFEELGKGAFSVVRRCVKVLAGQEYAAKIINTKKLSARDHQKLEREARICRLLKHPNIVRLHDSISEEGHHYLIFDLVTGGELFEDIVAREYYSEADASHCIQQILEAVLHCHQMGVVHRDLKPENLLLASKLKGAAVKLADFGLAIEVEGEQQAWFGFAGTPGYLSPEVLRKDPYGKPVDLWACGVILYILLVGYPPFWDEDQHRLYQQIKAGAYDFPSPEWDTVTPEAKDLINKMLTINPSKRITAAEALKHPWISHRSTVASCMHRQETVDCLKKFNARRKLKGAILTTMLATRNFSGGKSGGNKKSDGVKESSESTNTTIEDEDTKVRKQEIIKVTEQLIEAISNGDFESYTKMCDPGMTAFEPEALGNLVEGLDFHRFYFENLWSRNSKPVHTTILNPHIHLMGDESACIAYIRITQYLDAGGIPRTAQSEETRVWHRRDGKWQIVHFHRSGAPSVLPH
`COc1ccc2c(c1OC)O[C@H]1c3ccc(O)cc3OC[C@@H]21` gave an inhibition of -13%.
For `C[C@H](CC[C@@]1(O)O[C@H]2C[C@H]3[C@@H]4CC=C5C[C@@H](O[C@@H]6O[C@H](CO)[C@@H](O[C@@H]7O[C@@H](C)[C@H](O)[C@@H](O)[C@H]7O)[C@H](O)[C@H]6O[C@@H]6O[C@@H](C)[C@H](O)[C@@H](O)[C@H]6O)CC[C@]5(C)[C@H]4CC[C@]3(C)[C@H]2[C@@H]1C)CO[C@@H]1O[C@H](CO)[C@@H](O)[C@H](O)[C@H]1O`, the inhibition was -13%.
`CNc1ccccc1C(=O)OC` has an inhibition of -19%.
For `CC(C)(O)[C@@H]1Cc2c(cc3oc(CO)cc(=O)c3c2O)O1`, the inhibition was -10%.
`CC(C)NCC(O)COc1ccc(CC(N)=O)cc1` (stereo not drawn) gave an inhibition of -13%.
With `CC(=O)[C@@]1(O)CC[C@H]2[C@@H]3C[C@H](C)C4=CC(=O)C=C[C@]4(C)[C@@]3(F)[C@@H](O)C[C@@]21C` the inhibition was -13%.
The inhibition of `CCCCCCCCCCCCC` is reported as -18%.
The inhibition of `CC(=O)CCc1ccccc1` is reported as -63%.
`COc1ccc(/C=C/C(=O)c2ccc(OC)c3c2OC(C)(C)C=C3)cc1` gave an inhibition of -2%.
`O=[N+]([O-])c1ccc(O)c2ncccc12` gave an inhibition of -15%.
`N[C@@H](CCSC[C@H](N)C(=O)O)C(=O)O` gave an inhibition of -7%.
The inhibition of `O=C1[C@H]2CCCC[C@H]2C(=O)N1CCCCN1CCN(c2nsc3ccccc23)CC1` is reported as -9%.
`CC1(C)[C@@H](O[C@H]2O[C@H](C(=O)O)[C@@H](O)[C@H](O)[C@H]2O[C@@H]2O[C@H](C(=O)O)[C@@H](O)[C@H](O)[C@H]2O)CC[C@]2(C)[C@H]3C(=O)C=C4[C@@H]5C[C@@](C)(C(=O)O)CC[C@]5(C)CC[C@@]4(C)[C@]3(C)CC[C@@H]12` gave an inhibition of -0.05% and -0.13% and -0.02%.
`O=c1oc2cc(O)ccc2c2ccc(O)cc12` gave an inhibition of -115%.
`COc1cc(C[C@H](C)[C@H](C)Cc2ccc3c(c2)OCO3)ccc1O` has an inhibition of -14%.
The inhibition of `CCCC(=O)O[C@]1(C(=O)CO)CC[C@H]2[C@@H]3CCC4=CC(=O)CC[C@]4(C)[C@H]3[C@@H](O)C[C@@]21C` is reported as 4%.
`CO/N=C(\C(=O)N[C@@H]1C(=O)N2C(C(=O)OCOC(=O)C(C)(C)C)=C(/C=C\c3scnc3C)CS[C@H]12)c1csc(N)n1` gave an inhibition of -1%.
With `CC1=CC(=O)CC(C)(C)C1` the inhibition was -23%.

Study 2 — SMILES: COc1ccc(COc2ccc(Cc3cnc(N)nc3N)cc2OC)cc1; effect on: enzyme activity; mode: inhibitor; tested at: 0.5 µM; baseline: control
The remaining activity was 98.4% (PNCK (Homo sapiens, UniProt Q6P2M8)).
It gave 95.9% for remaining activity (PLK3 (Homo sapiens, UniProt Q9H4B4)).
It gave 98.3% for remaining activity (CLK3 (Homo sapiens, UniProt P49761)).
It gave 101% for remaining activity (TXK (Homo sapiens, UniProt P42681)).
The remaining activity was 102% (AKT2 (Homo sapiens, UniProt P31751)).
MAPK14 (Homo sapiens, UniProt Q16539) — remaining activity: 106%.
It gave 107% for remaining activity (RPS6KA4 (Homo sapiens, UniProt O75676)).
DCLK2 (Homo sapiens, UniProt Q8N568) — remaining activity: 101%.
It gave 96.9% for remaining activity (CDC42BPB (Homo sapiens, UniProt Q9Y5S2)).
MARK4 (Homo sapiens, UniProt Q96L34) — remaining activity: 89.7%.
For Cyclin-dependent kinase 1, with cyclin A (CDK1, Homo sapiens, UniProt P06493): remaining activity read 98.7%.
The remaining activity was 106% (GRK4 (Homo sapiens, UniProt P32298)).
For MAPK11 (Homo sapiens, UniProt Q15759): remaining activity read 98.7%.
It gave 110% for remaining activity (MAPK1 (Homo sapiens, UniProt P28482)).
For PRKG2 (Homo sapiens, UniProt Q13237): remaining activity read 104%.
It gave 102% for remaining activity (Cyclin-dependent kinase 9, with cyclin K (CDK9, Homo sapiens, UniProt P50750)).
It gave 100% for remaining activity (ROCK1 (Homo sapiens, UniProt Q13464)).
PAK3 (Homo sapiens, UniProt O75914) — remaining activity: 102%.
For NEK3 (Homo sapiens, UniProt P51956): remaining activity read 98.1%.
For MAP2K1 (Homo sapiens, UniProt Q02750): remaining activity read 98.6%.
MET (Homo sapiens, UniProt P08581) — remaining activity: 76.1%.
For DDR2 (Homo sapiens, UniProt Q16832): remaining activity read 99.6%.
The remaining activity was 94.7% (CAMK4 (Homo sapiens, UniProt Q16566)).
The remaining activity was 86.5% (CLK4 (Homo sapiens, UniProt Q9HAZ1)).

Study 3 — effect on: RNA clamping; method: fluorescence polarization; tested at: concentration not given; setting: mean of two replicates; added: FAM-labelled poly r(AG)8 RNA
Target: Eukaryotic initiation factor 4A-I (EIF4A1, Homo sapiens, UniProt P60842)
Chain of UniProt P60842 (whole entry, looked up): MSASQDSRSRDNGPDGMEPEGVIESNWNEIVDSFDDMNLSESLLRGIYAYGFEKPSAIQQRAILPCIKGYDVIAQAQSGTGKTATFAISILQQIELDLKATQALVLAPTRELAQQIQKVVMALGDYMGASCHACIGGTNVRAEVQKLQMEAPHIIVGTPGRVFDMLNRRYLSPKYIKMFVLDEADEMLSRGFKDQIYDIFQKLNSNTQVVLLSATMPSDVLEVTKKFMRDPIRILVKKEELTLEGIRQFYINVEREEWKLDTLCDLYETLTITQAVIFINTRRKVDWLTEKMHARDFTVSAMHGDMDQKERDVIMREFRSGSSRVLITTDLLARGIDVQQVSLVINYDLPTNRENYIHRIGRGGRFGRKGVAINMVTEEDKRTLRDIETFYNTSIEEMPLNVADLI
`COc1ccc([C@@]23Oc4cc(OC)cc(OC)c4[C@]2(O)[C@H](O)[C@H](C(=O)c2cc4cccc(OC)c4o2)[C@H]3c2ccccc2)cc1`: “fluorescence polarization change” 5.7 mP.
Under “fluorescence polarization change”, `COC(=O)[C@H]1C(=O)[C@@]2(NCc3nccn3C)c3c(OC)cc(OC)cc3O[C@@]2(c2ccc(OC)cc2)[C@@H]1c1ccccc1` is recorded as -1.6 mP.
`COC(=O)[C@@H]1[C@@H](c2ccccc2)[C@]2(c3ccc(OC)cc3)Oc3cc(OC)cc(OC)c3[C@@]23NC(CCl)=N[C@@]13O` — result for “fluorescence polarization change”: 23.3 mP.
`COC(=O)[C@@H]1[C@@H](c2ccccc2)[C@]2(c3ccc(OC)cc3)Oc3cc(OC)cc(OC)c3[C@@]23NC(C(C)C)=N[C@@]13O` — result for “fluorescence polarization change”: 70.1 mP.
Under “fluorescence polarization change”, `C#CCOc1ccc(-c2nc(OCC#C)c3c(n2)[C@@]2(O)c4c(OC)cc(OC)cc4O[C@@]2(c2ccc(OC)cc2)[C@@H]3c2ccccc2)cc1` is recorded as -6.5 mP.
For `COc1ccc([C@@]23Oc4cc(OC)cc(OC)c4[C@]2(OC)c2nc(-c4ccccc4)n(C)c(=O)c2[C@H]3c2ccccc2)cc1`, “fluorescence polarization change” read -7.1 mP.
`COc1ccc([C@@]23Oc4cc(OC)cc(OC)c4[C@]2(O)c2nc(C)[nH]c(=O)c2[C@H]3c2ccccc2)cc1`: “fluorescence polarization change” 66.5 mP.
For `COC(=O)[C@H]1C(=O)[C@@]2(NCCCC(OC)OC)c3c(OC)cc(OC)cc3O[C@@]2(c2ccc(OC)cc2)[C@@H]1c1ccccc1`, “fluorescence polarization change” read 13.2 mP.
`COC(=O)[C@H]1[C@@H](O)[C@@]2(O)c3c(OC)cccc3N(C)[C@@]2(c2ccc(Br)cc2)[C@@H]1c1ccccc1` — result for “fluorescence polarization change”: 3.2 mP.
`CNCCOc1ccc2c(c1)O[C@@]1(c3ccc(Cl)cc3)[C@H](c3ccccc3)C[C@H](O)[C@@]21O` — result for “fluorescence polarization change”: 119 mP.
`COc1ccc([C@@]23Oc4cc(OC)cc(OC)c4[C@]2(O)[C@H](O)[C@H](C(=O)N(C)C)[C@H]3c2ccccc2)cc1` — result for “fluorescence polarization change”: 58.5 mP.
Under “fluorescence polarization change”, `COc1ccc([C@@]23Oc4cc(OC)cc(OC)c4[C@]2(O)[C@H](O)[C@H](CO)[C@H]3c2ccccc2)cc1` is recorded as 53.5 mP.
Under “fluorescence polarization change”, `C=CCn1c(-c2ccccc2)nc2c(c1=O)[C@@H](c1ccccc1)[C@]1(c3ccc(OC)cc3)Oc3cc(OC)cc(OC)c3[C@]21O` is recorded as 22.2 mP.

Study 4 — effect on: cell-free assay; method: competition with immobilised ligand; tested at: 1 µM
SMILES: Cc1c(NC(=O)c2cc(C(N)=O)nc3cc(F)ccc23)c(C(F)(F)F)nn1Cc1ccc(C(C)(C)C)cc1
EGFR (Homo sapiens, UniProt P00533, del752-759) — remaining binding: 75%.
The remaining binding was 100% (Tyrosine-protein kinase ABL1, non-phosphorylated (ABL1, Homo sapiens, UniProt P00519, H396P)).
For CSNK1A1 (Homo sapiens, UniProt P48729): remaining binding read 94%.
It gave 82% for remaining binding (KIT (Homo sapiens, UniProt P10721, D816V)).
PAK2 (Homo sapiens, UniProt Q13177) — remaining binding: 85%.
It gave 100% for remaining binding (Ribosomal protein S6 kinase alpha-4, C-terminal kinase domain (RPS6KA4, Homo sapiens, UniProt O75676)).
The remaining binding was 86% (PIK3C2B (Homo sapiens, UniProt O00750)).
For LATS2 (Homo sapiens, UniProt Q9NRM7): remaining binding read 84%.
TNK1 (Homo sapiens, UniProt Q13470) — remaining binding: 100%.
KIT (Homo sapiens, UniProt P10721, V559D/V654A) — remaining binding: 98%.
ERBB3 (Homo sapiens, UniProt P21860) — remaining binding: 94%.
For Ribosomal protein S6 kinase alpha-2, C-terminal kinase domain (RPS6KA2, Homo sapiens, UniProt Q15349): remaining binding read 100%.
For MYLK (Homo sapiens, UniProt Q15746): remaining binding read 97%.
The remaining binding was 100% (MET (Homo sapiens, UniProt P08581)).

A few entries again (study 2):
DCLK2 (Homo sapiens, UniProt Q8N568) — remaining activity: 101%.
It gave 96.9% for remaining activity (CDC42BPB (Homo sapiens, UniProt Q9Y5S2)).
MARK4 (Homo sapiens, UniProt Q96L34) — remaining activity: 89.7%.
For Cyclin-dependent kinase 1, with cyclin A (CDK1, Homo sapiens, UniProt P06493): remaining activity read 98.7%.
The remaining activity was 106% (GRK4 (Homo sapiens, UniProt P32298)).
For MAPK11 (Homo sapiens, UniProt Q15759): remaining activity read 98.7%.
